Experimental data pooled from the literature.
Parts stem from different laboratories: compare values within a part only.

Sample 1 — technique: protein-binding microarray; form: double-stranded DNA, one strand shown; medium: in vitro; concentration: not given; reading: higher = stronger binding; measurement: E-score
Target: Hepatocyte nuclear factor 3-beta, forkhead domain (FOXA2, Homo sapiens, UniProt Q9Y261, residues 142-269)
Notes: k-mer, scored over probes, only values ≥0.25
Construct (chain): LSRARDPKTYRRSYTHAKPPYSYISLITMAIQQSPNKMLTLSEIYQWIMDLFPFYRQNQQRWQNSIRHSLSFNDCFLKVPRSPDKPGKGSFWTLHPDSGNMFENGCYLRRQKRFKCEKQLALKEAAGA
AGTTGTTG: 0.278
ATTATAAT: 0.274
ACATTGAA: 0.257
ATTACCTA: 0.286
ATACAGTC: 0.285
ACTGTATG: 0.291
ATGTAAGA: 0.272
ATATTAGG: 0.379
CGATATAA: 0.261
GTGTATGA: 0.295
CTATACAA: 0.28
CAGATGAA: 0.283
AACATATC: 0.286
ATATACAG: 0.404
ATATATAA: 0.439
CATTAATA: 0.282
ATCACAAC: 0.307
AAATATTC: 0.285
CAGATATA: 0.265
TCTATGCA: 0.293
ATGAATAC: 0.253

Sample 2 — technique: Spec-seq; form: double-stranded DNA, one strand shown; medium: in vitro; concentration: not given; notes: whole probe, mean of replicates; relative to: not given; reading: lower = stronger binding; measurement: relative binding energy; constant ends, left off below: GAGTCGTCTCGTCAGCAC … CCGTAGAGCACTCAGGTC
Target: POU domain, class 5, transcription factor 1, POU domain (Pou5f1, Mus musculus, UniProt P20263, residues 131-289)
Chain of UniProt P20263 (131-289, looked up): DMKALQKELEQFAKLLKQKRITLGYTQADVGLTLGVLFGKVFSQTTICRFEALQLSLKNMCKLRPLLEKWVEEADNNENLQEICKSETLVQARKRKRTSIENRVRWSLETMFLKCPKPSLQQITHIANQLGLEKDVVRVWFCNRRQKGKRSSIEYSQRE
CCCGTAAT: 0.645 ln ratio
ATGTGCAT: -0.134 ln ratio
TGTGTAAT: 0.642 ln ratio
GATTTAAT: 0.2 ln ratio
ATTGTGAT: 0.42 ln ratio
ATGCGAAC: 0.302 ln ratio
TAAGTAAT: 0.331 ln ratio
ATGCATCC: -0.313 ln ratio
TTAGTAAT: 0.273 ln ratio
ATGAAAAT: -0.17 ln ratio
ATGCCCTC: 0.649 ln ratio
TACGTAAT: 0.715 ln ratio
ATGCTTAA: 0.221 ln ratio
ATACAAAT: -0.017 ln ratio
ATGCTATC: 0.447 ln ratio
ATGCTTTT: 0.372 ln ratio
TTAATAAT: -0.287 ln ratio
ATGCTGCC: 1.02 ln ratio
ATCGCCAT: 0.544 ln ratio
ACTATAAT: 0.376 ln ratio
ATGCGGCT: 0.377 ln ratio
ATGCTCTA: 0.616 ln ratio
ATACTAAT: -0.0635 ln ratio
ATGCGATT: 0.0107 ln ratio

Sample 3 — technique: protein-binding microarray; form: double-stranded DNA, one strand shown; medium: in vitro; concentration: 250 nM; notes: 60-bp whole probe; added: salmon DNA 0.4 mg/ml; relative to: random background probes; reading: higher = stronger binding; measurement: log fluorescence; constant ends, left off below: GCCTAGCAC … GTCTTGATTCGCTTGACGCTGCTG
Target: Interferon regulatory factor 5, full length, phosphomimetic (IRF5, Homo sapiens, UniProt Q13568-2, residues 1-514, K96S/S451D/S453D/S456D/S462D)
GACGGACTGGCTATCGGGACGTGCTAG: 0.325 z-score
TTAGGTTACGGTCTCGGTTAGTGCTAG: 0.753 z-score
TTAGGTTTCCTTATACTTTAGTGCTAG: 1.2 z-score
TTAGGTATCGGGTATCGGTTGGTGCTA: 6.31 z-score
TACGATATCGGGTATCGAGACGTGCTA: 2.74 z-score
TTCGGTCTCCTACTGCTTTAGTGCTAG: 0.822 z-score
GACGATTTCGGGTATCAAGACGTGCTA: 4.31 z-score
GACGATTTCAGTTTCGATACGTGCTAG: 10 z-score
CAACCTTTGTTTTTTTCTATGTGCTAG: 1.13 z-score
GATGGTATCGGACTGGGGACGTGCTAG: 1.39 z-score
GACGGTATCGGGCTCGGGACGTGCTAG: 1.09 z-score
TTAGGTATCTTACTGCTTTAGTGCTAG: 0.0333 z-score
GACGGTTCCGCTTTCGGGACGTGCTAG: 4.17 z-score
GGCGGTCTCCTACTGCTGACGTGCTAG: -0.908 z-score
TGTGGTGCAGCTCCCTCCTCGTGCTAG: -0.695 z-score
TCACGTTACTTCCTCAAACTGTGCTAG: 0.323 z-score
TTAGGTCTCCTTTTCCGTTAGTGCTAG: 0.221 z-score
TGAGGTCTCCTTCTCCTTTAGTGCTAG: -0.284 z-score
TTGGGACTGGGACTGGGTTAGTGCTAG: -0.447 z-score

Sample 4 — technique: competition protein-binding microarray; form: double-stranded DNA, one strand shown; medium: in vitro; concentration: 2 µM; added: Cbf1 competitor, 0.05 µM; reading: higher = stronger binding; measurement: fluorescence intensity
Target: Phosphate system positive regulatory protein PHO4, full length, GST-tagged (PHO4, Saccharomyces cerevisiae, UniProt P07270, residues 1-312)
Notes: whole 60-bp probe, lowest competitor level
Target sequence (chain): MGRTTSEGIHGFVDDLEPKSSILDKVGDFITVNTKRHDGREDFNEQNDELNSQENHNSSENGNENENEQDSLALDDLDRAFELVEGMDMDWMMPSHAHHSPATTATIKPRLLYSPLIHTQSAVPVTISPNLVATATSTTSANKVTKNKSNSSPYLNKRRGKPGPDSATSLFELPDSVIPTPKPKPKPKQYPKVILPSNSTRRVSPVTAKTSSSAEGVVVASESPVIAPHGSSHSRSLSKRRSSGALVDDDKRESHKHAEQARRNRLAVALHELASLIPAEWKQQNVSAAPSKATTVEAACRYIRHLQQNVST
TTTCCAAGCCGCCGTCACGGCTGAATACCTGGCCAAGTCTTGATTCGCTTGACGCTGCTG: 2560 a.u.
TGCGCAACAACTTGCCAGGTGGGTGTATGTCTAGAAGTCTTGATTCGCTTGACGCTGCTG: 6080 a.u.
AGCCAGAAAATATACCATGTGTGAAAATAGCGATAAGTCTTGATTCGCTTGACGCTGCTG: 8140 a.u.
GATGTTCTTTTTCGCCACATGCTTCATGACGATTTAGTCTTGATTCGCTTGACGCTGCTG: 10100 a.u.
TTACTTTTAATCGATGACATGATAAGTTTCTTTTGAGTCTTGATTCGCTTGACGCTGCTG: 3810 a.u.
GCACTACCATGTTTGCACGTGTTGGTGTCCTCATCAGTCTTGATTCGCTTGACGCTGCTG: 17700 a.u.
GAAGCGTATAAAACACACGTGGATTGGGGGTGCTTTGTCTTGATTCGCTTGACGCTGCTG: 17700 a.u.
GTCTTGTCTCATTGAAGTGTGGGTGTCCCCACTTCAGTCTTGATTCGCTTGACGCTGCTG: 5280 a.u.
CAAACGGCATTCCGTCACGTACGATAACTTGATCCTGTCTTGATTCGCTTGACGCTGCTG: 5260 a.u.
CTAACGAAGGTTTTTCACGTGGGCTACAAGCCAAGTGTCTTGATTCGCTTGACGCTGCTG: 14000 a.u.
CTTTCCCGATCTTGGGTCGTGGGTGTAGCACATTTGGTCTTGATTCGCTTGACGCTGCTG: 9420 a.u.
GCCTGGGTGGCGGGCTATGTGGTGAATGCAGAGGGTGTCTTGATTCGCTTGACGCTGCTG: 5720 a.u.
AAACTGCTGTCATAACGCGTGGTGATGTGGTTTTGCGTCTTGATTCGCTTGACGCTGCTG: 8360 a.u.
GTCTTGTCTCATTGAACCGTGGGTGTCCCCACTTCAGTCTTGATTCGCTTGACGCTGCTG: 7300 a.u.
GTAGTTCAAATCACCAGCGTGCTAACAATGTTCAAGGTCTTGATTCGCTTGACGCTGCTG: 9250 a.u.
ACATTGACGTATTTTCACGTGATGGGCCTCACTGCGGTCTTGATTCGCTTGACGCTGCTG: 11100 a.u.
TCTTGTTACATCCGTCACGGCATTCCAGCTGTAAAAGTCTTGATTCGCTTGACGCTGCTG: 4210 a.u.
TGAGGATGGCTATGGCATGTGGTAGTGGGATTAGAGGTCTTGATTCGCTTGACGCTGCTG: 12700 a.u.
TGCGGGTACTTTGAGAGCGTGTCCTAACTTTGGCTTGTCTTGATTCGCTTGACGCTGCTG: 8060 a.u.

Some of these lines once more (sample 2):
ATACTAAT: -0.0635 ln ratio
CCCGTAAT: 0.645 ln ratio
ATGCGATT: 0.0107 ln ratio
ATGCTATC: 0.447 ln ratio
TACGTAAT: 0.715 ln ratio
ATGCCCTC: 0.649 ln ratio
